Results of several laboratories.
Each numbered part is a random draw from the data of one study; scales do not carry over between parts.
Sequence of UniProt P08631 (whole entry, looked up): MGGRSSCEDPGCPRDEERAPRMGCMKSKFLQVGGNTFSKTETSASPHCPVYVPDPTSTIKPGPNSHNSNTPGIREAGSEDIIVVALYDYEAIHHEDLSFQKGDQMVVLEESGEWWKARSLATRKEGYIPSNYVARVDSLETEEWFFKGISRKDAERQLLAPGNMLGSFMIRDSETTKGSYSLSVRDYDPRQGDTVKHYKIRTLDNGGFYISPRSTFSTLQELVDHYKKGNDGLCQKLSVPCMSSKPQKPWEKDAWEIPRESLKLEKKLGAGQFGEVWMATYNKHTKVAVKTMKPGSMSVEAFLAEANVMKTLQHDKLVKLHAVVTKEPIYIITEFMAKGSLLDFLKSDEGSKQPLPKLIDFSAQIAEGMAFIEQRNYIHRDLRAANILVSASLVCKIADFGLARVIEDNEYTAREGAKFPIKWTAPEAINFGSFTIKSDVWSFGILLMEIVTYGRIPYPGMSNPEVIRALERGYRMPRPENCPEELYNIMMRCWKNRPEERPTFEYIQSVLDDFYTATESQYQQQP
Sequence of UniProt Q13873 (whole entry, looked up): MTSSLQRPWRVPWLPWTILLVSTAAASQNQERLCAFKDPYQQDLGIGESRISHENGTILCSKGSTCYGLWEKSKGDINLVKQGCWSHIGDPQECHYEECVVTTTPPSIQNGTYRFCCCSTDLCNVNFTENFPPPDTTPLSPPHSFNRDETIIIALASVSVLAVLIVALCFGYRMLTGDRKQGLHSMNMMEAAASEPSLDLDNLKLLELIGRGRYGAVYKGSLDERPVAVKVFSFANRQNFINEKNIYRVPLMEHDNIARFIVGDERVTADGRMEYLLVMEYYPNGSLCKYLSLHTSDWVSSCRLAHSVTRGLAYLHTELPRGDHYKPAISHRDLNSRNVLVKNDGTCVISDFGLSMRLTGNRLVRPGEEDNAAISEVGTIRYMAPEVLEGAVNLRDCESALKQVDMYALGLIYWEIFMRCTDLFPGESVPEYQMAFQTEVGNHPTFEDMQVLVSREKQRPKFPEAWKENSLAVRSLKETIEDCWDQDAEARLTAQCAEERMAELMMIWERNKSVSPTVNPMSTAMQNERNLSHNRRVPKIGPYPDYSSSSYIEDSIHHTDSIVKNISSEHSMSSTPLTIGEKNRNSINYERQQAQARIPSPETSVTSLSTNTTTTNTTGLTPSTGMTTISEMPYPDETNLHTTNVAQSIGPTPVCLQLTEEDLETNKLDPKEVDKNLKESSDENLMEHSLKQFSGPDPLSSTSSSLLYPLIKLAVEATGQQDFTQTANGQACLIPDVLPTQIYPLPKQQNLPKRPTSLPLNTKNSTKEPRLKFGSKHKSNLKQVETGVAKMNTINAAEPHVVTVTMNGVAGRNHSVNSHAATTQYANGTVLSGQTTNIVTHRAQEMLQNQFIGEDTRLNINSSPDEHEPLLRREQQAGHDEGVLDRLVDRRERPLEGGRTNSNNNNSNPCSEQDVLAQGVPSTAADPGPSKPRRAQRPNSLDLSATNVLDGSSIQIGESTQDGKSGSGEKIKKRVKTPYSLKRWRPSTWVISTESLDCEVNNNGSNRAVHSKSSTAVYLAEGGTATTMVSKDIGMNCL

Series 1
Structure (SMILES): COc1ccc2[nH]c3c4[nH]c5ccc(OC)cc5c4c4c(c3c2c1)C(=O)NC4=O
target	observed	technique	tested at	reference	remaining binding
BMX (Homo sapiens, UniProt P51813)	binding	competition with immobilised ligand	1 µM		99%
LATS1 (Homo sapiens, UniProt O95835)	binding		1 µM		100%
PIK3CA (Homo sapiens, UniProt P42336, M1043I)	binding		1 µM		95%
STK38 (Homo sapiens, UniProt Q15208)	binding		1 µM		57%
FLT3 ITD		KINOMEscan	1000 nM	control	2.1%
KIT (Homo sapiens, UniProt P10721, D816H)	binding		1 µM		6.6%
CAMK2B (Homo sapiens, UniProt Q13554)	binding		1 µM		100%

Series 2 — observed: enzyme activity; mode: inhibitor; tested at: 77 µM
Target: DNA polymerase theta, ATPase domain (POLQ, Homo sapiens, UniProt O75417)
Sequence of UniProt O75417 (whole entry, unmodified, looked up): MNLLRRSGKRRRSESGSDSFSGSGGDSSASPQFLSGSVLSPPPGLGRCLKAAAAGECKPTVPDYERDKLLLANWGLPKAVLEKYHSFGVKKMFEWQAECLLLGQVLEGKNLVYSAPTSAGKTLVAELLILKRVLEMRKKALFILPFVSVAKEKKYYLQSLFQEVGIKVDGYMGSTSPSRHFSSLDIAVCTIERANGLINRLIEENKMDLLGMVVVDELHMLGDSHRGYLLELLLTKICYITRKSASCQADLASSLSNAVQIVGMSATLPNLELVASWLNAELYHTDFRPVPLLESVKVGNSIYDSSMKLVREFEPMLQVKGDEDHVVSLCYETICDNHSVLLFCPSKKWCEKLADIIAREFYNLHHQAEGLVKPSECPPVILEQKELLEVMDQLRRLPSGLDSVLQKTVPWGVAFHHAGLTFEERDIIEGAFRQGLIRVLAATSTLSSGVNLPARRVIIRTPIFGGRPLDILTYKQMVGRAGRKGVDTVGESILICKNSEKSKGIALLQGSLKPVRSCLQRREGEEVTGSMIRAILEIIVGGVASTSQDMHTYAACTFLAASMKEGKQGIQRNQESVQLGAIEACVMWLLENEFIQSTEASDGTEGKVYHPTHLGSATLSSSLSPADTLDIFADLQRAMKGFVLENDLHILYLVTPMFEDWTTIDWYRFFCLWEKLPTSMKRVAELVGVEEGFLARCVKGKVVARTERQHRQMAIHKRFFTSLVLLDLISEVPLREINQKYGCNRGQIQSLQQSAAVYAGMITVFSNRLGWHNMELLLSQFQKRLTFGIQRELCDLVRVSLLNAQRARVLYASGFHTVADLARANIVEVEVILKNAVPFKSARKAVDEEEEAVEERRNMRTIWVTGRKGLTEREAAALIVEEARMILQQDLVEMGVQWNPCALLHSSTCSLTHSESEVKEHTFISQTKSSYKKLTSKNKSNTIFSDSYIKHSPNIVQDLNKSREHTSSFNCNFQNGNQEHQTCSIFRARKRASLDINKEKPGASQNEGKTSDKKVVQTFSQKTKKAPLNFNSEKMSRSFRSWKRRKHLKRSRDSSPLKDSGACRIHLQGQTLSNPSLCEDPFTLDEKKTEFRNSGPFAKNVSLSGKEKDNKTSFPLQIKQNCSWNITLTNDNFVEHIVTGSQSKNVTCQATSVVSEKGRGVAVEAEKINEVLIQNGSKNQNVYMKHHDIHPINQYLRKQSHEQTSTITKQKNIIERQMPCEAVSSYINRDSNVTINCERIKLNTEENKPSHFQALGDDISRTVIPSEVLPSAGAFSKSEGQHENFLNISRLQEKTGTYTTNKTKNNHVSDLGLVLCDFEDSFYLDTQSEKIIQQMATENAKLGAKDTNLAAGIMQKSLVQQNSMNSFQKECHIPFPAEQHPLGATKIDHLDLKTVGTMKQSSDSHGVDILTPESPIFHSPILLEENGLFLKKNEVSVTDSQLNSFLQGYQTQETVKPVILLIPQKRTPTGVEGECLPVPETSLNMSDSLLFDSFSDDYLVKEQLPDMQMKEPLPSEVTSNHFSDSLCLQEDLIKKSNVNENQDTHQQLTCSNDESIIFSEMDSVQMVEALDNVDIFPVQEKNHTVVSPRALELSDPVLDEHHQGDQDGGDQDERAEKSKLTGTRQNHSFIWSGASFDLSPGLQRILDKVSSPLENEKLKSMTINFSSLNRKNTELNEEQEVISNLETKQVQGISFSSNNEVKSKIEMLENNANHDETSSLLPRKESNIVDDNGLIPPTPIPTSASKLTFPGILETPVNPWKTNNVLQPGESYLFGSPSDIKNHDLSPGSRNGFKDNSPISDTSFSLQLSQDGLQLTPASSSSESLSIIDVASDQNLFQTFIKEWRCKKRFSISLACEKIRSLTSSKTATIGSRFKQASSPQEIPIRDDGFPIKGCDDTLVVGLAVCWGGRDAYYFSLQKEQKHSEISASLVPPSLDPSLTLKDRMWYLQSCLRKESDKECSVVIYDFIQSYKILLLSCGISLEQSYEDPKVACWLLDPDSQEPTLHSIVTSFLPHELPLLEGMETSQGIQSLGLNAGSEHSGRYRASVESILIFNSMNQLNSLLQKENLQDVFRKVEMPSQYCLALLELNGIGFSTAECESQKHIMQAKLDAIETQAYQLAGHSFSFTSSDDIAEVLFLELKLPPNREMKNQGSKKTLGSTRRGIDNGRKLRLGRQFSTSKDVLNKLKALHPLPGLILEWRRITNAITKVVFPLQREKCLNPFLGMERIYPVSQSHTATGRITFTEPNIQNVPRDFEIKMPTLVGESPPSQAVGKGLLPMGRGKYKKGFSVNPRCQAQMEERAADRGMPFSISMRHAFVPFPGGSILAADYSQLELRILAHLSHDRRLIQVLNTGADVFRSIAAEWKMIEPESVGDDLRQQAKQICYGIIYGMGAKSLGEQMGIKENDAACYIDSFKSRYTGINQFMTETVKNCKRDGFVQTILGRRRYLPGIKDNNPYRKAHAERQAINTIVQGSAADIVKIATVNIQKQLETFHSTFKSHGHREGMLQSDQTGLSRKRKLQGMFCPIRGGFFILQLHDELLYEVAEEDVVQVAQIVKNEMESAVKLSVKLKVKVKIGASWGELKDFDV
SMILES	remaining activity [%]
CO[C@H]1[C@@H](OC)C[C@H](C)[C@@H](OC)C2=CC(=O)C=C(NC(=O)/C(C)=C/C=C\[C@H](OC)[C@@H](OC(N)=O)/C(C)=C/[C@@H]1C)C2=O	113
Oc1cc2c(c(Cl)c1O)CCNCC2c1ccccc1 (stereo not drawn)	103
COc1ccc2c(c1)CC[C@@H]1[C@@H]2CC[C@]2(C)[C@@H](NCCCCCCN3C(=O)C=CC3=O)CC[C@@H]12	103
C[C@@H]1CCN(C(=O)CC#N)C[C@@H]1N(C)c1ncnc2[nH]ccc12	101
CSc1ccc2c(c1)N(CCC1CCCCN1C)c1ccccc1S2 (stereo not drawn)	103
Cn1cncc1[C@@](N)(c1ccc(Cl)cc1)c1ccc2c(c1)c(-c1cccc(Cl)c1)cc(=O)n2C	98.2
Cc1c(N)c(=O)n(-c2ccccc2)n1C	95.8
C=C(C)[C@@H]1CC[C@]2(CO)CC[C@]3(C)[C@H](CC[C@@H]4[C@@]5(C)CC[C@H](O)C(C)(C)[C@@H]5CC[C@]43C)[C@@H]12	104
O=C1c2ccccc2-[n+]2ccc3c([nH]c4ccccc43)c21	106

Series 3 — observed: enzyme activity; mode: inhibitor; tested at: 0.5 µM; reference: control
Target: Protein kinase C beta type, isoform beta-I (PRKCB, Homo sapiens, UniProt P05771)
Sequence of UniProt P05771 (whole entry, looked up): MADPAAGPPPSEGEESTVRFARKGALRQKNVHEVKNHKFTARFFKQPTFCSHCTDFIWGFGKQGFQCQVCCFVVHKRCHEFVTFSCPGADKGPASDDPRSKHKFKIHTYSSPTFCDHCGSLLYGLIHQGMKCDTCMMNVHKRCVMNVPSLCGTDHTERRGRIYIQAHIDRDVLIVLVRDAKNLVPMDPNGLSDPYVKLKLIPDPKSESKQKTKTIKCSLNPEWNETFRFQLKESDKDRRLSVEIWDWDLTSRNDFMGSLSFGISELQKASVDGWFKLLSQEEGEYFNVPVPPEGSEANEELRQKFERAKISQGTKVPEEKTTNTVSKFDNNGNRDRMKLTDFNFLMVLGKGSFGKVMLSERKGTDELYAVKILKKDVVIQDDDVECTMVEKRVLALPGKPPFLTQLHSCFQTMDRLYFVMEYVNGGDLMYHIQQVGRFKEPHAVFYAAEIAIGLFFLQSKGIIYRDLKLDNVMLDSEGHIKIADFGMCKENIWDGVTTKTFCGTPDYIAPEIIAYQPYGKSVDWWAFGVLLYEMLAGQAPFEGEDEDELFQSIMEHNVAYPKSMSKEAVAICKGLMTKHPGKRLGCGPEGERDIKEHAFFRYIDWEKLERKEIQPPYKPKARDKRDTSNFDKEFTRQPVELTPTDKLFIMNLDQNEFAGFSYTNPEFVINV
SMILES	remaining activity [%]
Cc1nc2cc3nc(-c4cccs4)cnc3cc2n1C	107
O=c1cc(-c2cccc3c2Sc2ccccc2S3)oc(N2CCOCC2)c1	103
O=C1C(Cl)=C(N2C(=O)CCC2=O)C(=O)c2ccccc21	92.1
Nc1cccc(-c2cc3c(Oc4cccc(O)c4)ncnc3[nH]2)c1	113
CCN(CC)CCNC(=O)c1c(C)[nH]c(/C=C2\C(=O)Nc3ccc(F)cc32)c1C	90.2
Cc1cn(-c2cc(NC(=O)c3ccc(C)c(Nc4nccc(-c5cccnc5)n4)c3)cc(C(F)(F)F)c2)cn1	92.9
c1ccc(-c2[nH]ncc2-c2ccnc3ccccc23)nc1	102
O=C1c2ccccc2-c2n[nH]c3cccc1c23	111
COc1cc2ncnc(Nc3cccc(Cl)c3)c2cc1OC	103
COc1cc2ncnc(Nc3ccc(O)c(Br)c3)c2cc1OC	96.6
N#C/C(=C\c1ccc(O)c(O)c1)C(=O)NCc1ccccc1	91
O=C(Nc1cccc(Nc2nccc(Nc3cccc(C(F)(F)F)c3)n2)c1)C1CC1	94.7
N#Cc1c(NC(=O)c2cccc3ccccc23)sc2c1CCCC2	90.9
CN(C)C[C@H]1CCn2c(c(C3=C(c4cn(C)c5ccccc45)C(=O)NC3=O)c3ccccc32)C1	3.71
Ic1cccc(CSc2nnc(-c3ccncc3)o2)c1	97.5
Cc1cc2ncc(-c3ccccc3)nc2cc1C	103
CN([C@@H](Cc1ccc(OS(=O)(=O)c2cccc3cnccc23)cc1)C(=O)N1CCN(c2ccccc2)CC1)S(=O)(=O)c1cccc2cnccc12	95.9
c1ccc(-c2cnc(Nc3ccc(OCCN4CCCC4)cc3)s2)cc1	108
CCOc1nc(NC(=O)Cc2cc(OC)ccc2OC)cc(N)c1C#N	97.5
COc1cc2c(cc1OC)-c1[nH]nc(Nc3cccc(F)c3)c1C2	96
CCN(CC)CCNC(=O)c1c(C)[nH]c(/C=C2\C(=O)Nc3ccc(Cl)cc32)c1C	98.1
Cn1nc2c3c(cccc31)C(=O)c1ccccc1-2	94.7
O=C1Nc2ccc(Cl)cc2C1=Cc1cc(Cl)c(O)c(Cl)c1	97.3
C[C@@H]1CCN(C(=O)CC#N)C[C@@H]1N(C)c1ncnc2[nH]ccc12	101
CCN(CC)C(=O)c1ccc(Nc2nc(OCC3CCCCC3)c3[nH]cnc3n2)cc1	103

Series 4 — observed: cell-free assay; technique: competition with immobilised ligand; tested at: 1 µM
Compound: COc1cc(-c2cn(C3CCc4ccccc4N(CC(F)(F)F)C3=O)nn2)ccc1-n1ccc(C)n1 (stereo not drawn)
target	remaining binding [%]
Tyrosine-protein kinase ABL1, non-phosphorylated (ABL1, Homo sapiens, UniProt P00519, F317L)	64
PRKD3 (Homo sapiens, UniProt O94806)	100
MYLK4 (Homo sapiens, UniProt Q86YV6)	100
WEE1 (Homo sapiens, UniProt P30291)	100
WNK3 (Homo sapiens, UniProt Q9BYP7)	100
SIK2 (Homo sapiens, UniProt Q9H0K1)	100
HCK (Homo sapiens, UniProt P08631)	100
CDK17 (Homo sapiens, UniProt Q00537)	100
CDC42BPB (Homo sapiens, UniProt Q9Y5S2)	100
BMPR2 (Homo sapiens, UniProt Q13873)	100
NEK5 (Homo sapiens, UniProt Q6P3R8)	100
MAP2K1 (Homo sapiens, UniProt Q02750)	100

Series 5 — cell line: A-375; tested at: 100 µM; time: 60 h
Compound	viability [%]
CC[C@H](C)C(=O)O[C@H]1C[C@H](O)C=C2C=C[C@H](C)[C@H](CC[C@@H](O)C[C@@H](O)CC(=O)O)[C@H]21	99.8
O=C(O)c1ccc[n+]([O-])c1	104
O=C1Nc2ccc(Cl)cc2[C@@](C#CC2CC2)(C(F)(F)F)O1	5.42
Cc1ccc(S(=O)(=O)NC(=O)NN2CC3CCC[C@@H]3C2)cc1 (stereo in doubt)	56.3

For quick reference, copied from above (series 5):
Compound	viability [%]
CC[C@H](C)C(=O)O[C@H]1C[C@H](O)C=C2C=C[C@H](C)[C@H](CC[C@@H](O)C[C@@H](O)CC(=O)O)[C@H]21	99.8
O=C(O)c1ccc[n+]([O-])c1	104
O=C1Nc2ccc(Cl)cc2[C@@](C#CC2CC2)(C(F)(F)F)O1	5.42
Cc1ccc(S(=O)(=O)NC(=O)NN2CC3CCC[C@@H]3C2)cc1 (stereo in doubt)	56.3
